Measurements pooled from the literature.
A part holds a random share of what one study measured. Changes are numbered by the printed parent chain.

Block 1 — technique: protein binding microarray; form: double-stranded DNA, one strand shown; sample: in vitro; tested at: not given; reference: not given; direction: higher = stronger binding
Target: Histone acetyltransferase KAT6A, both winged helices, GST fusion (KAT6A, Homo sapiens, UniProt Q92794, residues 1-181)
Notes: 8-mer, flanks averaged, mean of 2 arrays, mostly near background
Construct (chain): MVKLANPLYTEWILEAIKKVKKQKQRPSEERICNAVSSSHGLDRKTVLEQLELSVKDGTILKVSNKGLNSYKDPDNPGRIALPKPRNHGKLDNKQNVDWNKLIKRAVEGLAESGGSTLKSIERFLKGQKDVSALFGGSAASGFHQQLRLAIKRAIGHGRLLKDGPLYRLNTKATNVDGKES
For `ATGTTAGC`, the E-score was -0.0339.
`GGCTCGAA` gave an E-score of 0.0691.
`GCCGCGAA` has an E-score of 0.315.
`CACTGAAC` gave an E-score of 0.00143.
For `AATTCAAA`, the E-score was -0.12.
With `AAGGCAGG` the E-score was -0.25.
`GTATAACA` gave an E-score of -0.0946.
`CGCCCCCG` has an E-score of 0.257.
For `ACCGCTGA`, the E-score was 0.144.
The E-score of `ATAAAGTC` is reported as 0.0215.
The E-score of `ACAATAAC` is reported as -0.0682.
`AAGATATC` has an E-score of -0.115.
`TACACCTA` gave an E-score of -0.202.
For `CGTGTAGA`, the E-score was 0.136.
With `ATCCGAGC` the E-score was 0.0909.
With `CCAAATGA` the E-score was -0.151.
For `GTATCTTA`, the E-score was -0.0308.
With `CTAGCATC` the E-score was -0.139.
`GATTGACC` has an E-score of 0.0621.
`TAACCTCA` gave an E-score of -0.188.
The E-score of `ATCCGATG` is reported as 0.0544.
`GATTTGCA` has an E-score of -0.125.
With `CAGGCTGA` the E-score was -0.132.
`TGAGCCCA` has an E-score of -0.192.
The E-score of `CGGGGAAC` is reported as 0.179.

Block 2 — technique: RNA Bind-n-Seq; form: RNA; sample: in vitro; tested at: 365 nM; reference: no-protein control; direction: higher = stronger binding
Target: RNA binding protein fox-1 homolog 2, RRM domain, GST-SBP tag (RBFOX2, Homo sapiens, UniProt O43251-10, residues 100-194)
Notes: natural RNA segment, single round, ends assumed
Construct (chain): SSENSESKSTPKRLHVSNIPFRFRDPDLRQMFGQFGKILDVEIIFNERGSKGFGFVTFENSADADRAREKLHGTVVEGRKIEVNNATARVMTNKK
For `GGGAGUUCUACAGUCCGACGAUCACCCCUUGCAAGCCCACGGGGCUUCCUGGGUGGGAGGAAGAGGGUUCAGGCACUUCCCACCACCUUUGUGCCCCCUCUGGUUGUACUUUCCAGGUCCCUGCUUCUCACCUUGGAAUUCUCGGGUGCCAA`, “RBNS enrichment (R)” read 0.27.
Under “RBNS enrichment (R)”, `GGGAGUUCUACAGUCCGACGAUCCUAAAUUAUUAUUUAGCUUCUCCCAUCGCCCACGAUGGAAUGUAAAAUAAAUUGGUUUUGUACUGGACAGCGUGCACGAGUUUUGGGGGAUUAUGCCCGCGGCAUUACAAUGGAAUUCUCGGGUGCCAA` is recorded as 0.847.
`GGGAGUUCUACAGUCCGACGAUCGACUGAACUUUUCUCAUAUUUUCACAUUUCUCAGUCCUGAAGAAUAAGGAAAACAAAGCGACGCCUAUUUUGUAUAAAGUUUCCGACUCCGUCUUGGCCAUGUCUAGUAAUGGAAUUCUCGGGUGCCAA`: “RBNS enrichment (R)” 0.456.
For `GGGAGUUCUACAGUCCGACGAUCUUGAUCCAGAGUCCUUGUUUCCUUGACUUGCUCCACCAGCCCUGCACCAGCUUUCCAAAUGCACUCUGCUUGUGUUGAAAUUCUCCCAUUUUUAUUUGGGCAUAAAAGUUUGGAAUUCUCGGGUGCCAA`, “RBNS enrichment (R)” read 0.982.
`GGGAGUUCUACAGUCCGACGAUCGAAGGAUUGUAAUGUCAGCAGGUGUUGCCUGAAAGAGUUCUGUGUAGACACUUCUGGGACGUUGCUGCGCAUGCAGCAUCGGAAGGCAGCACAGGCGCUGGCAGUGGAUAUGGAAUUCUCGGGUGCCAA` — result for “RBNS enrichment (R)”: 0.258.
`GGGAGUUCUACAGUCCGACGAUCGCAGCAGGUGGCUCUUCUGCUGGGGCUGACUUGUCCAGAAGGGGACAAAGUGCAAUACAGAGCCUUCCCUACCCUGACGCCUCCCAGUCAUCAUCUCCAGAACUCCCAGCUGGAAUUCUCGGGUGCCAA` — result for “RBNS enrichment (R)”: 0.662.
For `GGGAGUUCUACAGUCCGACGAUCAAAGGUAUAUACUUUUAGGAGCCUAAAAAACAUUUCCAAACUAGCCCAAGCUAUCUCAACUACAGGAGCGGAGGGGGACGAAUGAUUGUGAACACAAAGUCUGACUUGAAUGGAAUUCUCGGGUGCCAA`, “RBNS enrichment (R)” read 0.344.
For `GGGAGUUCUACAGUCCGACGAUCCCUGGAUAGCUCGCUUGGAUGAAUUGAUGGUGUUUAGCAGUUUUUAUAUACUUCCUCCGGGUCUCUAGGAACUCAGACUUUUUUAAACAUAGAUGUAAAUAAGGAACAGUUGGAAUUCUCGGGUGCCAA`, “RBNS enrichment (R)” read 0.905.
`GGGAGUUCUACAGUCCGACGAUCAAAUUCCACAGAUUAUCAAGUCCUUCUCCUGCAACAAAUGCCCAAGUCAUUUUUUAAAAAUUUCUAAUGAAAGAAGUUUGUGUUCUGUCCAAAAAGUCACUGAACUCAUAUGGAAUUCUCGGGUGCCAA`: “RBNS enrichment (R)” 0.4.
For `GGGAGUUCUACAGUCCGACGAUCUGAUCCGGGCCACUAGAGAUUAGCUUCCAUUGCCUGAGGCAGAGGGAGGACACAGGUCUUCCUGGAGUCUCUCUGCUGCUUUCCCCAGCCUCCCAAGCAACACACUAUGGUGGAAUUCUCGGGUGCCAA`, “RBNS enrichment (R)” read 0.315.
Under “RBNS enrichment (R)”, `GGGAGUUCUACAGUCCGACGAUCGCAGGAUAAAGAGGAUAACUCCUUCCAUUAGCAAAUUUUACAGUUGUUAACAGUACUCUGCCAUAUUUGAAAAAUAAUGCCAGAGUCAGUCCUUGAAAACAAGGUAGCUCUGGAAUUCUCGGGUGCCAA` is recorded as 0.726.
Under “RBNS enrichment (R)”, `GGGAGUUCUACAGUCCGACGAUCUUCAAGGGACUCAGUAAGAGAAACGGAAUGUCCCCAAGGGUCAGUGGGCCACACUCUGGCUUUGUGGCUGCUGACAGGGCUUAGCUACACGAACAGCCUGAGAAGUCACUUGGAAUUCUCGGGUGCCAA` is recorded as 0.511.

Block 3 — technique: DHFR PCA, deep sequencing; sample: yeast; together with: (+)-ABA 58 µM; reference: wild-type fitted maximum; direction: higher = stronger binding
Target: ABI1, truncated, D143A, DHFR fusion (Arabidopsis thaliana)
Notes: methotrexate growth selection, single substitutions
Starting sequence: PYL1, truncated, DHFR fusion (Arabidopsis thaliana); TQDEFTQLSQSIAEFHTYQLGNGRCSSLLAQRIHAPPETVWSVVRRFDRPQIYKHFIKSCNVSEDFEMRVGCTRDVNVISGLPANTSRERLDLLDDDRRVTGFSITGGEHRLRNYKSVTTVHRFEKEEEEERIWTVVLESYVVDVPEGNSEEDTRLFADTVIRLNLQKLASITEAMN; partner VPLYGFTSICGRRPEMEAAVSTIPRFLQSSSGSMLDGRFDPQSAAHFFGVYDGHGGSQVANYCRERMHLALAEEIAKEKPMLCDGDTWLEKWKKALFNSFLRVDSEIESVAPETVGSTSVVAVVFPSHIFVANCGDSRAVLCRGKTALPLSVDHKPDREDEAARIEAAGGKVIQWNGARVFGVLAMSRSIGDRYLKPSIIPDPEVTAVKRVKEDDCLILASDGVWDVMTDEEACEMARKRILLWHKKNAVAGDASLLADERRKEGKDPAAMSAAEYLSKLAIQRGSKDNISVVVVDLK
For `H110K`, “relative binding score” read 12.6%.
`V118I` — result for “relative binding score”: 87.8%.
For `T120Y`, “relative binding score” read -9.32%.
`W134L` — result for “relative binding score”: 94.6%.
`D3S` — result for “relative binding score”: 84.7%.
For `E152D`, “relative binding score” read 89%.
`K54M` — result for “relative binding score”: 2.78%.
`V142D`: “relative binding score” 58.6%.
For `T39Q`, “relative binding score” read 87.5%.
For `S150V`, “relative binding score” read 56.1%.
`Q51A` — result for “relative binding score”: 45.2%.
Under “relative binding score”, `A84I` is recorded as 12.2%.
`P146E`: “relative binding score” 11.2%.
For `A13W`, “relative binding score” read 67.9%.
Under “relative binding score”, `F5T` is recorded as 86.9%.
For `D92K`, “relative binding score” read -5.49%.

Block 4 — technique: protein-binding microarray; form: double-stranded DNA, one strand shown; sample: in vitro; tested at: 940 nM top; notes: 60-bp whole probe; together with: salmon DNA 0.4 mg/ml; reference: random background probes; direction: higher = stronger binding; constant ends, left off below: GCCTAGCAC … GTCTTGATTCGCTTGACGCTGCTG
Target: Interferon regulatory factor 5, full length, phosphomimetic (IRF5, Homo sapiens, UniProt Q13568-2, residues 1-514, S451D/S453D/S456D/S462D)
For `TTTCAGCTGTTTTTCTCACCGTGCTAG`, “fitted relative affinity” read 4.1 z-score.
Under “fitted relative affinity”, `TTAGATTTCGGGTGTCGATTAGTGCTA` is recorded as 1.22 z-score.
Under “fitted relative affinity”, `TCACATCTGCAACATCTAACTGTGCTA` is recorded as 0.565 z-score.
Under “fitted relative affinity”, `GACGGTTTCCTAGTGCTGACGTGCTAG` is recorded as -0.293 z-score.
`TTAGAATTCGGGACTGGATTAGTGCTA` — result for “fitted relative affinity”: -0.451 z-score.
`TTATATTTCAGTATCGATTAGTGCTAG`: “fitted relative affinity” 6.71 z-score.
For `TCACTTCTGGGCTGTTTGACTGTGCTA`, “fitted relative affinity” read 0.57 z-score.
For `TTAGGTTTCCTTCACCTTTAGTGCTAG`, “fitted relative affinity” read 1.87 z-score.
`GTTCTTTTCTGTTGTCTGTGTGTGCTA`: “fitted relative affinity” 1.88 z-score.
`GACGGTTCCGGACTGGGGACGTGCTAG` — result for “fitted relative affinity”: 0.049 z-score.
`TCAACTCTTCTTTTTTTACTGTGCTAG`: “fitted relative affinity” 1.11 z-score.
For `GACGGCTTCGGTTCCGGGACGTGCTAG`, “fitted relative affinity” read -0.106 z-score.
Under “fitted relative affinity”, `TTAGATATGGGGTATCGATTAGTGCTA` is recorded as 2.66 z-score.
For `GACGGTCTCGGTCTCAGGACGTGCTAG`, “fitted relative affinity” read 3.38 z-score.
For `GAAAATCAACCAGGTGGTGTGTGCTAG`, “fitted relative affinity” read -0.491 z-score.
Under “fitted relative affinity”, `TTAGGTTTTGGACTGGGTTAGTGCTAG` is recorded as 0.841 z-score.
`GACGATCTCAGTTTTGAGACGTGCTAG` — result for “fitted relative affinity”: 0.426 z-score.
`AGGAGTATTTATCTGCAAAGGTGCTAG`: “fitted relative affinity” -0.278 z-score.
For `CTAGTTAAGGTACACCAGCAGTGCTAG`, “fitted relative affinity” read -0.308 z-score.
`TACCTTTTCACTTTACACACGTGCTAG` — result for “fitted relative affinity”: 1.78 z-score.
Under “fitted relative affinity”, `TTAGGTATCGGTTACGGTTAGTGCTAG` is recorded as 10.4 z-score.
Under “fitted relative affinity”, `TTGGATTTCAGTTCCGATTAGTGCTAG` is recorded as 1.58 z-score.

Block 5 — target: CCNB3, cyclin fold, Cln2 fusion (human); technique: yeast growth competition, sequencing; sample: yeast; notes: weak parent motif; reference: not given; direction: higher = stronger binding
Starting sequence: CDT1 docking peptide (human); PPARRRLRLSVDE
For `R5K`, “normalised enrichment score” read -0.0317.
`R5K L9F`: “normalised enrichment score” 0.233.
`D12A`: “normalised enrichment score” 0.661.
`R6A` — result for “normalised enrichment score”: 0.256.
`R8A` — result for “normalised enrichment score”: 0.241.
For `L7A`, “normalised enrichment score” read 0.683.
`R5A L7A`: “normalised enrichment score” -0.176.
Under “normalised enrichment score”, `R5A` is recorded as 0.103.
`P1A` — result for “normalised enrichment score”: 0.0503.

Further values, each from its own experiment
The fold induction of `PhoQ, residues 284 288 289 292 302 303 ALAMYF` is reported as 1.77 (PhoP, residues 12 14 15 18 19 VHSCL (Escherichia coli, UniProt P23836); Sort-seq, item: YFP reporter; E. coli; PhoQ-PhoP variant library, together with: 10 µM Mg2+; reference: high Mg2+ state, higher = stronger signaling).

Repeated from above (block 1):
`GGCTCGAA` gave an E-score of 0.0691.
`GCCGCGAA` has an E-score of 0.315.
`CACTGAAC` gave an E-score of 0.00143.
For `AATTCAAA`, the E-score was -0.12.
With `AAGGCAGG` the E-score was -0.25.
`GTATAACA` gave an E-score of -0.0946.
`CGCCCCCG` has an E-score of 0.257.
